Measured values from different studies.
Every numbered part comes from another study and shows a few of its results, in no order.
Chain of UniProt P47898 (whole entry, looked up): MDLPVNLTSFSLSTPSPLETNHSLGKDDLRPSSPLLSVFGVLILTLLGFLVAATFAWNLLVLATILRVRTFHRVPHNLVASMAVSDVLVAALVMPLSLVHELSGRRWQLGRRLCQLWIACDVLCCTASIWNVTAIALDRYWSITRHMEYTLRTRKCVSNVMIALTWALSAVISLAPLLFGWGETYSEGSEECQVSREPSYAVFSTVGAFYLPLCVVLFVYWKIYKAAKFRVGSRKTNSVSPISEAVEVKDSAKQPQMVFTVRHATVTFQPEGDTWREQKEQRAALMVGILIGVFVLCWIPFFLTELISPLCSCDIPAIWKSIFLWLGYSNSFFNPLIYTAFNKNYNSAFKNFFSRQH
Chain of UniProt Q61527 (whole entry, looked up): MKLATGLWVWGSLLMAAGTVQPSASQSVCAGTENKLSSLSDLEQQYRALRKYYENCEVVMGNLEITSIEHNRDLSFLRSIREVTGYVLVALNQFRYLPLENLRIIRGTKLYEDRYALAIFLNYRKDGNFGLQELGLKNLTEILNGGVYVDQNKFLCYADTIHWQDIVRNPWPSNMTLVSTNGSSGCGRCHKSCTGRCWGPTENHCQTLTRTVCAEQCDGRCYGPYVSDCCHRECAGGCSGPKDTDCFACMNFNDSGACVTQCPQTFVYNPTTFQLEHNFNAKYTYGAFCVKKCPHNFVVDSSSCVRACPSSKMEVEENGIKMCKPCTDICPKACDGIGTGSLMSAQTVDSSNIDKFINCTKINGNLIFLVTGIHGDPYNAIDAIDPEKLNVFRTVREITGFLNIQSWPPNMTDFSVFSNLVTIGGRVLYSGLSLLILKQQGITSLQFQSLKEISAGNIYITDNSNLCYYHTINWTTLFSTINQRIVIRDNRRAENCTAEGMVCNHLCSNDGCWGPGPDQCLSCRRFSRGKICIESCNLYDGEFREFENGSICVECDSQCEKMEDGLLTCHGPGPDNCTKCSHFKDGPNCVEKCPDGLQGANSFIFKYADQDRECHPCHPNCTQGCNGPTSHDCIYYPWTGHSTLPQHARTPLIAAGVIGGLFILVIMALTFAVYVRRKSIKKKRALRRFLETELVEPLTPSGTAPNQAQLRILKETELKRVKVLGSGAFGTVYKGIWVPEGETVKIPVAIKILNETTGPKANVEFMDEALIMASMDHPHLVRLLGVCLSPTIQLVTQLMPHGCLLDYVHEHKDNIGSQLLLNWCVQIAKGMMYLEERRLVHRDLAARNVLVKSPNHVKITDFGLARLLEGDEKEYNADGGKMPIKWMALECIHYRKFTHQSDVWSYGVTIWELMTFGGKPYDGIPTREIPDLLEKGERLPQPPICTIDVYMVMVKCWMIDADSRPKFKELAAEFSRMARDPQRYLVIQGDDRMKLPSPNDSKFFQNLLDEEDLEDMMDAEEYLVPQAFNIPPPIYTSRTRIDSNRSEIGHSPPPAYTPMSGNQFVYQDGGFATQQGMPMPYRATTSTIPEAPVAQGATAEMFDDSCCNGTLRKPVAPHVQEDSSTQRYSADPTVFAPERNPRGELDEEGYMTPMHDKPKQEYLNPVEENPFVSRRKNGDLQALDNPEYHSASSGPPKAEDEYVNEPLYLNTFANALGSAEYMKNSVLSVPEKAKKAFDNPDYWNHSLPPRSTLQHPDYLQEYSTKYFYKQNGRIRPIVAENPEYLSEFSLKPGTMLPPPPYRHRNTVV

Sample 1
Target: Eukaryotic initiation factor 4A-III (Homo sapiens, UniProt P38919)
Chain of UniProt P38919 (whole entry, looked up): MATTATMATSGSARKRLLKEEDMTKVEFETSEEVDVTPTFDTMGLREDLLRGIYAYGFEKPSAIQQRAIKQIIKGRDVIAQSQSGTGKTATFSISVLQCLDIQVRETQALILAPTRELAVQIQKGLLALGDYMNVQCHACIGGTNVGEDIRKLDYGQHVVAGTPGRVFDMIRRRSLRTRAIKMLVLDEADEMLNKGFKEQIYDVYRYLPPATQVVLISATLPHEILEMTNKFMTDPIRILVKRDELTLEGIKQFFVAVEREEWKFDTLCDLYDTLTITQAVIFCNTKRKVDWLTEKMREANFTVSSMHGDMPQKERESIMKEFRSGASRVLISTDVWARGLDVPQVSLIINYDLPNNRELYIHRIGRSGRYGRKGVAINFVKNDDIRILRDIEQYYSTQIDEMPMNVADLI
Effect on: RNA clamping
Technique: fluorescence polarization
Concentration: concentration not given
With: FAM-labelled poly r(AG)8 RNA
Endpoint: fluorescence polarization change
COC(=O)[C@@H]1[C@@H](O)[C@@]2(O)c3c(OC)cc(OS(=O)(=O)c4ccc(C)cc4)cc3O[C@@]2(c2ccc(Br)cc2)[C@H]1c1ccccc1: 3.1 mP
COC(=O)[C@@H]1[C@@H](O)[C@@]2(O)c3c(OC)cc(F)cc3O[C@@]2(c2ccc(Cl)cc2)[C@H]1c1ccccc1: 6.2 mP
COC(=O)CCCn1c(-c2ccccc2)nc2c(c1=O)[C@H](c1ccccc1)[C@]1(c3ccc(OC)cc3)Oc3cc(OC)cc(OC)c3[C@]21O: 5.5 mP
COc1ccc([C@@]23Oc4cc(OC)cc(OC)c4[C@]2(O)[C@H](O)[C@H](C(=O)c2cc4cccc(OC)c4o2)[C@H]3c2ccccc2)cc1: 5.3 mP
COC(=O)[C@@H]1[C@@H](c2ccccc2)[C@]2(c3ccc(OC)cc3)Oc3cc(OC)cc(OC)c3[C@@]23NC(c2cccnc2)=N[C@@]13O: 26.8 mP

Sample 2
Structure (SMILES): COc1cc(C(=O)N2CCC(N3CCN(C)CC3)CC2)ccc1Nc1ncc2c(n1)N(C)c1ccccc1C(=O)N2C
Endpoint: inhibition
NDR1 (mouse); probe labelling, KiNativ, measured: DTGHVYAMkILR peptide, LYS1 site; brain tissue lysate (mouse); 0.1 µM, with: ATP acyl-phosphate probe: -0.4%
human PBMC; probe labeling, inhibitor, KiNativ profiling, measured: DMkAANVLITR; cell lysate; 1 µM, LYS2 site, with: ATP acyl-phosphate probe: -12.2%
NEK1 (mouse); probe labelling, KiNativ, measured: DIkSQNIFLTK peptide, LYS2 site; brain tissue lysate (mouse); 1 µM, with: ATP acyl-phosphate probe: -13.8%
mouse MAP3K5/MAP3K6/MAP3K7; probe labelling, KiNativ ADP probe; mouse brain lysate; 0.1 µM, LYS1 site IAIkEIPER: 7.8%
Receptor tyrosine-protein kinase erbB-4 (Erbb4, Mus musculus, UniProt Q61527); probe labelling, KiNativ, measured: activation loop peptide; brain tissue lysate (mouse); 1 µM, with: ATP acyl-phosphate probe: -9.3%
RSK1 domain 2 (mouse); probe labelling, inhibitor, KiNativ ActivX ADP probe; mouse brain lysate; 0.1 µM, Lys1 site peptide: 10.9%
CSK human; KiNativ profiling; human PBMC; 1 µM, activation loop site, with: ATP acyl phosphate probe: -13.1%
MAP2K1 and MAP2K2 human; KiNativ profiling; human PBMC; concentration not given, LYS2 site, with: ADP acyl phosphate probe: 11.8%
human PBMC; probe labeling, inhibitor, KiNativ profiling; cell lysate; concentration not given, domain 1, DFG motif site, with: ATP acyl-phosphate probe 1 µM: -3.6%

Sample 3
Structure (SMILES): CC(C)n1cnc(-c2ccc(F)cc2)c1-c1ncc(C(=O)Nc2ccc(N3CCN(C)CC3)cc2)[nH]1
Technique: phase 2a clinical trial
Species: patients with idiopathic pulmonary fibrosis
Endpoint: patients with treatment-emergent adverse events
measured: idiopathic pulmonary fibrosis; 60 mg once daily, Grade 5: 0%
measured: electrocardiogram high voltage; 30 mg once daily, Grade 2: 0%
measured: interstitial lung disease; dose not given, Grade 2, all drug arms: 0%
measured: drug-induced liver injury; 60 mg once daily, Grade 2: 0%
measured: left bundle branch block; 60 mg once daily, Grade 1: 0%
measured: electrocardiogram QT prolonged; 60 mg once daily, Grade 2: 0%

Single results of other studies
CC(C)CC(=O)N1CCc2nc(-c3ccc(Br)cc3)nc(N(C)Cc3ccccc3)c2C1 — inhibition (5-hydroxytryptamine receptor 5A (HTR5A, Homo sapiens, UniProt P47898); ligand displacement; 10 µM): -10.3%

Some of these lines once more (sample 2):
RSK1 domain 2 (mouse); probe labelling, inhibitor, KiNativ ActivX ADP probe; mouse brain lysate; 0.1 µM, Lys1 site peptide: 10.9%
CSK human; KiNativ profiling; human PBMC; 1 µM, activation loop site, with: ATP acyl phosphate probe: -13.1%
